Measurements pooled from the literature.
Compare with care: the assays were run in different laboratories. Numbers after ± are the reported error.

Compound | test | test system | conditions | measurement | result
CC[C@@H](C)[C@@H](NC(=O)[C@@H](C)NC(=O)[C@@H](CCCCN)NC(=O)[C@@H](CC(C)C)NC(=O)[C@@H](C)NC(=O)[C@H](NC(=O)[C@@H](Cc1c[nH]cn1)NC(=O)[C@@H](CC(C)C)NC(=O)[C@H](NC(=O)[C@H](NC(=O)[C@@H](CCCCN)NC(=O)[C@@H](CCCCN)NC(=O)[C@@H](C)NC(=O)[C@@H](CO)NC(=O)[C@@H](CCCCN)NC(=O)[C@@H](Cc1ccccc1)NC(=O)[C@H](NC(=O)[C@@H](CCCCN)NC(=O)[C@@H](CC(C)C)NC(=O)[C@@H](Cc1ccccc1)NC(=O)[C@@H](CO)NC(=O)[C@@H](CCCCN)NC(=O)[C@@H](Cc1c[nH]c2ccccc12)NC(=O)[C@@H](CCCCN)NC(C)=O)[C@H](C)O)[C@H](C)O)C(C)C)[C@H](C)O)C(=O)N[C@H](CO)C(=O)N[C@H](CO)C(N)=O | circular dichroism | buffer with 50% TFE | 5 °C, at 222 nm | mean residue ellipticity | 34100 deg cm²/dmol
CCCCCCCCCCCCC(=O)O.O=C1CCCC2C3CCCN4CCCC(CN12)C34 (stereo not shown) | – | water | concentration not given, 303.15 K | limiting apparent molar volume | 427.52 ± 0.28 cm³/mol
CN(C)C(CNC(=O)Nc1cc(C(F)(F)F)ccc1N1CCOCC1)c1ccncc1 (stereo not shown) | – | mouse, serum | intraperitoneal, 360 mg/kg single dose | serum potassium | 9.1 mmol/L
CCCC[C@H]1C(=O)N(C)[C@@H](CCCC)C(=O)N[C@@H](CCCNC(=O)CN2CCN(CC(=O)O)CCN(CC(=O)O)CCN(CC(=O)O)CC2)C(=O)N[C@H](C(=O)NCC(N)=O)CSCC(=O)N[C@@H](Cc2ccc(O)cc2)C(=O)N(C)[C@@H](C)C(=O)N[C@@H](CC(N)=O)C(=O)N2CCC[C@H]2C(=O)N[C@@H](Cc2c[nH]cn2)C(=O)N[C@@H](CC(C)C)C(=O)N(C)CC(=O)N[C@@H](Cc2c[nH]c3ccccc23)C(=O)N[C@@H](CO)C(=O)N[C@@H](Cc2c[nH]c3ccccc23)C(=O)N1C [gallium-68 labelled] | static PET | NOD/SCID mice, CHO-hPD-L1 xenograft, CHO-hPD-L1 tumour | intravenous, 1 h post injection, after five PBS treatments | tumour to muscle ratio | 6.83 ± 1.89
CC[C@H](C)C(=O)N1CCC(NC(=O)Nc2ccc(OC(F)(F)F)c(F)c2)CC1 | – | healthy volunteers | oral, 0.5 mg single dose, device site dermatitis | subjects with dermatitis TEAE | 0%
COc1cc(NC(=O)C(=O)c2c(C)n(Cc3ccc(Cl)cc3)c3ccc(C)cc23)ccn1 | – | cynomolgus monkey, plasma | intravenous, 1 mg/kg | AUC(0-inf) | 1970 ng·h/mL
[3H]c1sc(C)nc1C=C(C)C1CC2C(CCCC(C)C(O)C(C)C(=O)C(C)(C)C(O)CC(=O)O1)N2CCO (stereo not shown) | – | CD2F1 mice, plasma | intravenous, 2.2 nmol/kg, 24 h | plasma concentration | 13.5 ng/mL
COc1cc2c3c(c4cc(OC)c(OC)cc4c2cc1OC)C[N+]1([O-])CCCC1C3 (stereo not shown) | – | swine cells | 24 (unit not given) | CC50 | > 50 µM
CC[C@H](C)[C@H](NC(=O)[C@@H](NC(=O)[C@H](CCCNC(=N)N)NC(=O)[C@H](CO)NC(=O)[C@H](CCCCN)NC(=O)[C@H](CC(C)C)NC(=O)[C@H](C)NC(=O)[C@H](CC(=O)O)NC(=O)[C@@H]1CCCN1C(=O)[C@H](CCC(N)=O)NC(=O)[C@@H]1CCCN1C(=O)[C@@H]1CCCN1C(=O)[C@H](CCCNC(=N)N)NC(=O)[C@H](CCCNC(=N)N)NC(=O)[C@H](CCCNC(=N)N)NC(=O)[C@H](CCC(N)=O)NC(=O)[C@H](CCCNC(=N)N)NC(=O)[C@H](CCCNC(=N)N)NC(=O)[C@H](CCCCN)NC(=O)[C@H](CCCCN)NC(=O)[C@H](CCCNC(=N)N)NC(=O)CN)[C@@H](C)O)C(=O)N[C@@H](CCCNC(=N)N)C(=O)O | – | mouse, hippocampus | intranasal, dose not given | hippocampal detection | not detected
CCN(Cc1ccccc1)C(=O)CCc1nc(CN2CCN(C(=O)Cc3ccc(OC)c(OC)c3)CC2)no1 | – | rat, brain | intravenous, 1 mg/kg, 1 h | concentration | 2.4 ng/g

Excerpt of the above:
Compound | test | test system | conditions | measurement | result
CCCCCCCCCCCCC(=O)O.O=C1CCCC2C3CCCN4CCCC(CN12)C34 (stereo not shown) | – | water | concentration not given, 303.15 K | limiting apparent molar volume | 427.52 ± 0.28 cm³/mol
